# Measured values pooled from the literature.
# Every numbered part comes from another study and shows a few of its results, in no order.
# UniProt P08912, sequence (whole entry, looked up): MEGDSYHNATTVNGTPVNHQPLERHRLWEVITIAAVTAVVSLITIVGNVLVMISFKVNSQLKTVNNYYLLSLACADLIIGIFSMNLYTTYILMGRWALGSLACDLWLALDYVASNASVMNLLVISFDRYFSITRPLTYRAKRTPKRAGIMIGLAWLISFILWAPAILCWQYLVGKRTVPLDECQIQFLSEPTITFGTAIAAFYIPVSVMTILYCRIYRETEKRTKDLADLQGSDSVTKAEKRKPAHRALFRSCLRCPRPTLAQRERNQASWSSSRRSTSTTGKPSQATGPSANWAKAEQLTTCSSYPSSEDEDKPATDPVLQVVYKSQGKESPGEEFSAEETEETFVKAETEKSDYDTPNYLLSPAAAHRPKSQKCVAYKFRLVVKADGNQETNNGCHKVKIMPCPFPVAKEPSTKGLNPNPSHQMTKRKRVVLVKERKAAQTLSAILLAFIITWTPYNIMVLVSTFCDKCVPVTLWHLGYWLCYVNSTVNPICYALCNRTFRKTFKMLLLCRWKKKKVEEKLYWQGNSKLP
# UniProt P07550, sequence (whole entry, looked up): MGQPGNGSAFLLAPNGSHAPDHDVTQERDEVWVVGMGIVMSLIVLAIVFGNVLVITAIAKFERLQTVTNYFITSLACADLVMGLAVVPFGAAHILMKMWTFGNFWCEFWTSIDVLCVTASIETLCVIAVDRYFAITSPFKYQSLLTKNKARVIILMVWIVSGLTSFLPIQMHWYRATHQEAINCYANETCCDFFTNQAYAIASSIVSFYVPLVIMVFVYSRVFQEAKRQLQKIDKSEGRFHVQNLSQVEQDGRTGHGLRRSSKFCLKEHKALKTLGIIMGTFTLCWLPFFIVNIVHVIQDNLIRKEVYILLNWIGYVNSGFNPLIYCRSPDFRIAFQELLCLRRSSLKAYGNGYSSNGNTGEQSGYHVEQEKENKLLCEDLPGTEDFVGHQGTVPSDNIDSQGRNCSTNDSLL
# UniProt Q9H3N8, sequence (whole entry, looked up): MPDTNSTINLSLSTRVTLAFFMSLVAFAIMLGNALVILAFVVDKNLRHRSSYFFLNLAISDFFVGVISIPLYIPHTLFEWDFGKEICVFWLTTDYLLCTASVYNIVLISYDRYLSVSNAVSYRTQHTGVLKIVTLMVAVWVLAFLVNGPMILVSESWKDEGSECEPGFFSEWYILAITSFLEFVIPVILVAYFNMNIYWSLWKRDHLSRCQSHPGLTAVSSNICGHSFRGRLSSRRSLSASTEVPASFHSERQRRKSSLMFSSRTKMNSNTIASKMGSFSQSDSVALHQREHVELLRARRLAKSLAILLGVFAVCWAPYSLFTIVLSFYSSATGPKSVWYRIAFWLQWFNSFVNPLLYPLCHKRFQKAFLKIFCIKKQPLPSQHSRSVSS
# UniProt P25100, sequence (whole entry, looked up): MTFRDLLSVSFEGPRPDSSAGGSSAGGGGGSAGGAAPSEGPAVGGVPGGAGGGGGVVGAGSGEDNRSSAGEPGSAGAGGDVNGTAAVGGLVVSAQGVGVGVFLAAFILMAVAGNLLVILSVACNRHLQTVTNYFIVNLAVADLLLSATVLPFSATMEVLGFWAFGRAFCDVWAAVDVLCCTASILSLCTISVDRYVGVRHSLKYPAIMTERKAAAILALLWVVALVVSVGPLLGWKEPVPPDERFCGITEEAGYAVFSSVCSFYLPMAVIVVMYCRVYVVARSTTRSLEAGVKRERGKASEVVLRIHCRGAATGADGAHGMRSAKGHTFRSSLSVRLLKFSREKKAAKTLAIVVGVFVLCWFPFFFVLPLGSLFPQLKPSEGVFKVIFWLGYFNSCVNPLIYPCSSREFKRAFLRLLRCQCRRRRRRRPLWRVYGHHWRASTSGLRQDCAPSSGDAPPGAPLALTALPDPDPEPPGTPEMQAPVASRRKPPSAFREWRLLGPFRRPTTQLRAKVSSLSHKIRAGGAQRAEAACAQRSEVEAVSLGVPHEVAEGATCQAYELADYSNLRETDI
# UniProt P18825, sequence (whole entry, looked up): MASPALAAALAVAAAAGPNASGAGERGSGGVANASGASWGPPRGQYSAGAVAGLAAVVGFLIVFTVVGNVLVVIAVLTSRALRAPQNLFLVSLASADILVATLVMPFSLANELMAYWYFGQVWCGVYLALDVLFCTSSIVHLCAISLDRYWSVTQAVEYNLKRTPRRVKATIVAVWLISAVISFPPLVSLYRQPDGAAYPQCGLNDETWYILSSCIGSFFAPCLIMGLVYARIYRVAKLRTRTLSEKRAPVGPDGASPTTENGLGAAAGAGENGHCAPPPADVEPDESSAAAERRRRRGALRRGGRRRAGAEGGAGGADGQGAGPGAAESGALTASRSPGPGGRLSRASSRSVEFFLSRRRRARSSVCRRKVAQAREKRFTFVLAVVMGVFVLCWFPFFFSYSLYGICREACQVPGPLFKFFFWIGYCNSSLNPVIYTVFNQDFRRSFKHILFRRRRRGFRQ

# Set 1
# Target: Cyclin-dependent kinase 7 (CDK7, Homo sapiens, UniProt P50613)
# UniProt P50613, sequence (whole entry, looked up): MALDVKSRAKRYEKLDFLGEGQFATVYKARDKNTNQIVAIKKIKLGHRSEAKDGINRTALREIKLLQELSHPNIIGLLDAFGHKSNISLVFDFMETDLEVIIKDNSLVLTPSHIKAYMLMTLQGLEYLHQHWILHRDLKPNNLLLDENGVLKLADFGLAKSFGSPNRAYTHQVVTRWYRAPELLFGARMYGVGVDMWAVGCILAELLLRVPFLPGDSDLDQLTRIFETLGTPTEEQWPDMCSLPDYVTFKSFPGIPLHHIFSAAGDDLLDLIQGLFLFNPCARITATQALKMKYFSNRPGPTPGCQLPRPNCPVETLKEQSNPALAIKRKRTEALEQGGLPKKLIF
# Read-out: enzyme activity
# Action: inhibitor
# Tested at: 0.5 µM
# Reference: control
SMILES,remaining activity [%]
Cc1nc(-c2ccccc2)c(-c2ccncc2)o1,109
CN(C)c1ccc(C=C2C(=O)Nc3ccccc32)cc1,99.4
O=S(=O)(c1cccc2cnccc12)N1CCCNCC1,95.5
O=C(CCCc1ccc(-c2ccccc2F)cc1)Nc1ccc(O)cc1,101
O=C1NC(=O)C(c2cn(CCCO)c3ncccc23)=C1c1cnccn1,96.9
Cc1ccc(NC(=O)c2ccc(CN3CCN(C)CC3)cc2)cc1Nc1nc(-c2cccnc2)cs1,110
Nc1ncnc2n[nH]c(Nc3ccc(F)cc3)c12,98.4
COc1ccc(C(=O)Nc2sc3c(c2C(N)=O)CCCC3)cc1OC,99.9
C#Cc1cccc(Nc2ncnc3cc(OCCOC)c(OCCOC)cc23)c1,107
Cn1sc(=O)n(Cc2ccccc2)c1=O,96.8
COc1ccc(OC)c2c(=S)c3ccccc3[nH]c12,91.7
CCOC(=O)c1c(C)[nH]c(/C=C2\C(=O)Nc3ccccc32)c1C,96.8
Nc1[nH]nc2nc3ccccc3nc12,98
NCCNc1ncc(C(N)=O)c(Nc2cccc(C(F)(F)F)c2)n1,98.5
COc1cc2nccc(Oc3ccc(NC(=S)NC(=O)c4ccccc4C)cc3)c2cc1OC,97.7

# Set 2
# Cell line: 451Lu
SMILES,IC50 [µM]
CN(C)CCC=C1c2ccccc2C=Cc2ccccc21,66.9
CC(NCCC(c1ccccc1)c1ccccc1)c1ccccc1 (centres unmarked),37
CNCCCN1c2ccccc2CCc2ccccc21,64.1
Clc1ccccc1CNCC1CCC(CNCc2ccccc2Cl)CC1 (centres unmarked),49.4
CCOC(=O)C1=C(COCCN)NC(C)=C(C(=O)OC)C1c1ccccc1Cl (centres unmarked),20.8

# Set 3
# Species: human
# Matrix: microsomes or S9
# Tested at: 2 µM
# Time: 0.5 h
Structure (SMILES),remaining compound [%]
CCCNC(=O)Nc1ccccc1S(=O)(=O)NCCC,> 99
CC(CCCC(C)(C)O)Cc1[nH]cnc1-c1ccccc1 (centres unmarked),90.1
O=C(Nc1ccccc1C(F)(F)F)N1Cc2c(sc3c2CCCC3)-n2cccc2C1c1ccccc1 (centres unmarked),14.6
Cc1nc(C)n(C(C)CNC(=O)CN2C(=O)COc3ccc(C(C)(C)C)cc32)n1 (centres unmarked),> 100
COc1ccc(NC(=O)N2Cc3c(sc4c3CCCC4)-n3cccc3C2c2cccs2)c(OC)c1 (centres unmarked),0.217
Nc1nc(N2CCN(C3CCCCC3)CC2)nc2ccccc12,19.9
O=c1[nH]c2cc(S(=O)(=O)N3CC[C@H]4[C@H](C3)OCc3cnnn34)ccc2o1,84.3

# Set 4
# Compound: O=C(NCc1ncc(C(F)(F)F)cc1Cl)c1ccc2c(c1)C1(CCS(=O)(=O)CC1)[C@@H](C1CC1)N2S(=O)(=O)c1ccc(F)cc1
# Read-out: ligand displacement
# Tested at: 10 µM
target,inhibition [%]
"ADRA1D (Homo sapiens, UniProt P25100)",-3.69
"HRH4 (Homo sapiens, UniProt Q9H3N8)",-6.68
"CHRM5 (Homo sapiens, UniProt P08912)",-1.92
"ADRB2 (Homo sapiens, UniProt P07550)",-16.2
"ADRA2C (Homo sapiens, UniProt P18825)",15.7

# Repeated from above (set 2):
SMILES,IC50 [µM]
Clc1ccccc1CNCC1CCC(CNCc2ccccc2Cl)CC1 (centres unmarked),49.4
CN(C)CCC=C1c2ccccc2C=Cc2ccccc21,66.9
